Experimental data of several laboratories.
Numbered parts are unrelated; each lists some results of a single study.

Study 1
Target: Sal-like protein 4, full length isoform A (SALL4, Homo sapiens, UniProt Q9UJQ4, residues 1-1053)
UniProt Q9UJQ4, sequence (whole entry, looked up): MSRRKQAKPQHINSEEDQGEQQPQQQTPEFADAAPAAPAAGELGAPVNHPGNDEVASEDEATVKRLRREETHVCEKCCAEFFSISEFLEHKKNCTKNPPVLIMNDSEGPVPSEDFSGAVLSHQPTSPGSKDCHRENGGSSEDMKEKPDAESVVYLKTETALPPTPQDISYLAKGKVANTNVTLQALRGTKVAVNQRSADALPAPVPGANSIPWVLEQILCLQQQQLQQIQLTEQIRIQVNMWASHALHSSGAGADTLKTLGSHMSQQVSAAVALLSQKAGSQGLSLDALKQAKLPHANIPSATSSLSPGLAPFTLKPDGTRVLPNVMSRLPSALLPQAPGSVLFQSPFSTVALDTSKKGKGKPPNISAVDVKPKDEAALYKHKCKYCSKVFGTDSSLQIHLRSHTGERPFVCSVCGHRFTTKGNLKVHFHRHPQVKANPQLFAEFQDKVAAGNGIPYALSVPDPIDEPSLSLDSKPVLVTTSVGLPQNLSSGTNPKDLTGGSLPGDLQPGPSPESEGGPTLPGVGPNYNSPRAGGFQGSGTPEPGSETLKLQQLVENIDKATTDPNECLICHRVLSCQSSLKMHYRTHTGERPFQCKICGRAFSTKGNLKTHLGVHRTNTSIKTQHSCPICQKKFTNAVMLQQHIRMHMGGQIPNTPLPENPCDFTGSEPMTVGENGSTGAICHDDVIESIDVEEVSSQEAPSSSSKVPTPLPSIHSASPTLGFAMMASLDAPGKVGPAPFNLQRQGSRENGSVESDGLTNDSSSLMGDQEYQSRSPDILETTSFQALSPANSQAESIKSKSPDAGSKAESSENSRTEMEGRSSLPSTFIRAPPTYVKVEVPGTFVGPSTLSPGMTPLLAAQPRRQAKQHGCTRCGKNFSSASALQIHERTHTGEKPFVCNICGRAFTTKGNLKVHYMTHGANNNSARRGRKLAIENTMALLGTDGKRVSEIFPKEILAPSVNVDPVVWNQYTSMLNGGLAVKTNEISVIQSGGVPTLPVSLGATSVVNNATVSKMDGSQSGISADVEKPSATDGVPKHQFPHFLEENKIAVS
Technique: universal PBM
Molecule type: double-stranded DNA, one strand shown
Medium: in vitro
Tested at: 600 nM
Setting: 8-mer, flanks averaged, mean of replicates
Direction: higher = stronger binding
The E-score of `AGGATCCC` is reported as -0.264.
The E-score of `GGCGTTCA` is reported as -0.261.
`CGTTAGTA` has an E-score of 0.129.
The E-score of `GTCGCCAA` is reported as -0.169.
With `GGAAAGGA` the E-score was -0.0824.
`TCACCCGA` has an E-score of -0.163.

Study 2
Target: POU, POU domain (Salpingoeca helianthica)
Technique: Spec-seq
Molecule type: double-stranded DNA, one strand shown
Medium: in vitro
Tested at: not given
Setting: whole probe, mean of replicates
Reference: not given
Direction: lower = stronger binding
Construct (chain): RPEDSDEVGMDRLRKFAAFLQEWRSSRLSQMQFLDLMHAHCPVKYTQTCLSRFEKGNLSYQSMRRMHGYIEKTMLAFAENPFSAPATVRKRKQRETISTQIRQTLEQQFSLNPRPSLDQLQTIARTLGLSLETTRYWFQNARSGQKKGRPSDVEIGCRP
`GAGTCGTCTCGTCAGCACCGTCTAATCCGTAGAGCACTCAGGTC` — result for “relative binding energy”: 0.818 ln ratio.
`GAGTCGTCTCGTCAGCACATGCGGGCCCGTAGAGCACTCAGGTC`: “relative binding energy” 1.41 ln ratio.
For `GAGTCGTCTCGTCAGCACATGCGAAGCCGTAGAGCACTCAGGTC`, “relative binding energy” read 1.53 ln ratio.
`GAGTCGTCTCGTCAGCACTATATAATCCGTAGAGCACTCAGGTC` — result for “relative binding energy”: 0.0511 ln ratio.

Study 3
Target: Interferon regulatory factor 7, full length, phosphomimetic (IRF7, Homo sapiens, UniProt Q92985, residues 1-503, S471D/S472D/S475D/S476D/S477D/S483D/S484D/S487D)
UniProt Q92985, sequence (whole entry, unmodified, looked up): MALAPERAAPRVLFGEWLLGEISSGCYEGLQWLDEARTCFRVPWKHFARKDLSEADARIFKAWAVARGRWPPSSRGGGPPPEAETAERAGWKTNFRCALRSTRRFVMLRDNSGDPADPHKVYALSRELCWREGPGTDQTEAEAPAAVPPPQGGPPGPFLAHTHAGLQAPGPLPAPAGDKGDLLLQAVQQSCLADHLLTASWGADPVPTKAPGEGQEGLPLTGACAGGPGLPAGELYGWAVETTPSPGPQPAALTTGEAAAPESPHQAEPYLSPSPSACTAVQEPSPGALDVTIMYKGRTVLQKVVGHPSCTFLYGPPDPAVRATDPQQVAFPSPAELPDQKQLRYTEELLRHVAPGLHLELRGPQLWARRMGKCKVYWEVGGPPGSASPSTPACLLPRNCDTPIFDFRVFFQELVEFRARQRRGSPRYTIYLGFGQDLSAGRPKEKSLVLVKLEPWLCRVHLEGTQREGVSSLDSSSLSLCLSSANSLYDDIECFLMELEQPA
Technique: protein-binding microarray
Molecule type: double-stranded DNA, one strand shown
Medium: in vitro
Tested at: 2200 nM top
Setting: 60-bp whole probe
With: salmon DNA 0.4 mg/ml
Reference: random background probes
Direction: higher = stronger binding
All sequences stand within: GCCTAGCAC … GTGCTAGGTCTTGATTCGCTTGACGCTGCTG
`GACGATATCGGTCTCGGGAC` — result for “fitted relative affinity”: 0.158 z-score.
`GCCTTGTTCGTCGCTCCGCT`: “fitted relative affinity” 1.31 z-score.
For `TCACTGTTCTTTTCAGTACT`, “fitted relative affinity” read 1.97 z-score.
`GGCGGTCTCCTTCTCCTGAC`: “fitted relative affinity” 0.139 z-score.
Under “fitted relative affinity”, `CGTACTGTATCTAGCCTTGC` is recorded as 0.934 z-score.
`TTATATATCAGTATCGATTA`: “fitted relative affinity” 0.72 z-score.

Single results of other studies
`PhoQ, residues 284 288 289 292 302 303 MLMVEA` has a fold induction of 13.7 (PhoP, residues 12 14 15 18 19 STWGI (Escherichia coli, UniProt P23836); Sort-seq, refers to: YFP reporter; E. coli; PhoQ-PhoP variant library, with: 10 µM Mg2+; reference: high Mg2+ state, higher = stronger signaling).
